Results of several laboratories.
Organism: Staphylococcus aureus

CC[C@H](C)[C@H](NC(=O)CNC(=O)[C@@H](NC(=O)CNC(=O)[C@@H](NC(=O)CNC(=O)[C@@H](NC(=O)[C@@H](NC(=O)[C@H](CCC(N)=O)NC(=O)[C@H](CCC(=O)O)NC(=O)[C@@H](NC(=O)[C@H](CC(C)C)NC(=O)[C@H](CCCNC(=N)N)NC(=O)[C@H](Cc1ccccc1)NC(=O)[C@@H](NC(=O)[C@H](CC(N)=O)NC(=O)[C@H](CCCCN)NC(=O)CNC(=O)[C@H](CCSC)NC(=O)[C@H](CCCCN)NC(=O)CNC(=O)[C@H](CC(C)C)NC(=O)[C@H](CCCCN)NC(=O)[C@H](CCCCN)NC(=O)CNC(=O)[C@H](Cc1ccccc1)NC(=O)[C@H](CCCCN)NC(=O)[C@H](CCCCN)NC(=O)[C@H](CC(C)C)NC(=O)[C@H](Cc1c[nH]c2ccccc12)NC(=O)CN)C(C)C)C(C)C)C(C)C)C(C)C)C(C)C)C(C)C)C(=O)N[C@@H](CC(N)=O)C(=O)N[C@@H](C)C(=O)N[C@@H](CC(C)C)C(=O)N[C@@H](CO)C(=O)O  MIC (broth microdilution; ATCC 25923, Mueller-Hinton broth; 16 to 20 h, 37 °C): 2.2 µg/mL
CC[C@H](C)[C@H](NC(=O)[C@H](Cc1c[nH]c2ccccc12)NC(=O)[C@H](CCCNC(=N)N)NC(=O)[C@@H]1CCCN1C(=O)[C@H](CCCNC(=N)N)NC(=O)[C@@H]1CCCN1C(=O)[C@H](CC(C)C)NC(=O)[C@H](Cc1ccc(O)cc1)NC(=O)[C@@H]1CCCN1C(=O)[C@@H]1CCCN1C(=O)[C@H](CCCCN)NC(=O)[C@H](CC(=O)O)NC(=O)[C@@H](N)C(C)C)C(=O)N[C@@H](CCCNC(=N)N)C(=O)N[C@H](CCCNC(=N)N)C(=O)N[C@H](C(=O)N[C@@H](Cc1ccc(O)cc1)C(=O)N[C@@H](CC(N)=O)C(=O)N[C@H](CCCNC(=N)N)C(N)=O)[C@@H](C)CC  MIC (broth microdilution; DSM 6247; 18 h, 37 °C, 25% MHB2): 128 µg/mL
N=C(N)NCCC[C@H](NC(=O)[C@H](CCCNC(=N)N)NC(=O)[C@H](Cc1ccccc1)NC(=O)[C@H](CO)NC(=O)[C@H](Cc1ccccc1)NC(=O)[C@H](Cc1c[nH]c2ccccc12)NC(=O)[C@H](Cc1ccccc1)NC(=O)[C@H](CO)NC(=O)[C@H](Cc1ccccc1)NC(=O)[C@H](CCCNC(=N)N)NC(=O)[C@@H](N)CCCNC(=N)N)C(N)=O  MIC (MRSA 43300; 24 h, 37 °C): 128 µM
CC[C@H]1OC(=O)[C@H](C)[C@@H](OC(=O)Cc2c(F)cc([N+](=O)[O-])cc2F)[C@H](C)[C@@H](O[C@@H]2O[C@H](C)C[C@H](N(C)C)[C@H]2O)[C@](C)(OC)C[C@@H](C)C(=O)[C@H](C)[C@@H](O)[C@]1(C)O  MIC (BAA-976 msr(A)): < 1 µg/mL
CC(C)C[C@H](NC(=O)[C@H](CCC(=O)O)NC(=O)[C@H](C)NC(=O)[C@H](CC(C)C)NC(=O)[C@H](CCC(=O)O)NC(=O)[C@H](C)NC(=O)[C@H](CCC(N)=O)NC(=O)[C@H](CC(C)C)NC(=O)[C@H](CCC(=O)O)NC(=O)[C@H](Cc1ccc(O)cc1)NC(=O)[C@H](CC(C)C)NC(=O)[C@H](CCC(N)=O)NC(=O)[C@H](C)NC(=O)[C@H](CCC(=O)O)NC(=O)[C@H](CC(C)C)NC(=O)[C@H](CCC(N)=O)NC(=O)[C@H](C)NC(=O)[C@H](CC(C)C)NC(=O)[C@H](CCC(=O)O)NC(=O)[C@H](C)NC(=O)[C@@H](N)CCC(N)=O)C(N)=O  MIC (broth microdilution; ATCC 6538; 24 h): > 250 µM
CC[C@H](C)[C@H](NC(=O)[C@H](Cc1c[nH]c2ccccc12)NC(=O)[C@H](CCCCN)NC(=O)[C@H](CC(C)C)NC(=O)[C@@H](NC(=O)[C@@H](NC(=O)CNC(=O)[C@H](CCCCN)NC(=O)[C@H](Cc1c[nH]cn1)NC(=O)[C@H](CCCCN)NC(=O)[C@H](Cc1c[nH]c2ccccc12)NC(=O)[C@H](C)NC(=O)[C@H](CC(C)C)NC(=O)[C@H](CO)NC(=O)[C@@H](NC(=O)[C@H](Cc1ccc(O)cc1)NC(=O)[C@H](CCCCN)NC(=O)[C@H](CCC(N)=O)NC(=O)CNC(=O)[C@H](CCCCN)NC(=O)[C@@H](NC(=O)[C@H](C)NC(=O)[C@H](CC(C)C)NC(=O)[C@H](Cc1ccccc1)NC(=O)[C@H](CCC(N)=O)NC(=O)[C@@H](NC(=O)[C@H](CC(C)C)NC(=O)[C@H](CCCCN)NC(=O)[C@H](CCSC)NC(=O)[C@H](Cc1ccccc1)NC(=O)[C@H](C)NC(=O)[C@H](C)NC(=O)[C@@H](N)CCSC)[C@@H](C)CC)[C@@H](C)O)C(C)C)[C@@H](C)O)[C@@H](C)CC)C(=O)N[C@@H](CC(N)=O)C(N)=O  MIC (EMRSA 12817; 24 h, 37 °C): 32 µg/mL
C#CCNC(=O)[C@H]1NC(=O)[C@H]2NC(=O)[C@H](NC(=O)[C@@H]3NC(=O)[C@H](CC(N)=O)NC(=O)[C@H](NC(=O)[C@@H](CC(C)C)NC)[C@H](O)c4ccc(c(Cl)c4)Oc4cc3cc(c4O[C@@H]3O[C@H](CO)[C@@H](O)[C@H](O)[C@H]3O[C@H]3C[C@](C)(N)[C@H](O)[C@H](C)O3)Oc3ccc(cc3Cl)[C@H]2O)c2ccc(O)c(c2)-c2c(O)cc(O)cc21  MIC (broth microdilution; VISA NRS402, tryptic soy broth; 20 to 24 h, 37 °C, 0.002% polysorbate 80): 4 µg/mL
COc1ccc(CC2[NH2+]CCc3cc(OC)c(OC)cc32)cc1OC.[Cl][Fe-]([Cl])([Cl])[Cl] (stereo not shown)  MIC (24 h, 37 °C): > 1600 µM
CCCCCCCCCCCCCC(=O)N[C@H]1C(=O)N[C@@H](CN)C(=O)N[C@@H](CO)C(=O)N[C@@H](Cc2ccc(O)cc2)C(=O)O[C@H]1C  MIC (SH1000; added: phosphatidylglycerol, molar ratio 1): 4 µg/mL
COc1ccc2ccc(O)c(/C=N/[C@H]3CCCC[C@H]3/N=C/c3cccc(F)c3O)c2c1  MIC (bacterial growth, broth microdilution; vancomycin-intermediate): > 40 µM
CC[C@H](C)[C@@H]1NC(=O)[C@H](CO)NC(=O)[C@H](CCCCN)NC(=O)[C@@H]2CSSC[C@@H](C(=O)N[C@@H](Cc3ccc(O)cc3)C(N)=O)NC(=O)[C@H](CCCCN)NC(=O)[C@@H]3CSSC[C@H](NC(=O)[C@H](CCCNC(=N)N)NC(=O)[C@H](CC(C)C)NC(=O)[C@H](CC(=O)O)NC(=O)[C@H](CC(=O)O)NC(=O)[C@H](CCC(=O)O)NC(=O)[C@H](CC(N)=O)NC(=O)[C@H](Cc4c[nH]c5ccccc45)NC(=O)C(C)(CC)NC(=O)CNC(=O)[C@H](CC(N)=O)NC(=O)[C@@H](NC(=O)CNC(=O)[C@H](Cc4ccccc4)NC(=O)CN)CSSC[C@H](NC(=O)[C@H](Cc4ccc(O)cc4)NC(=O)CNC(=O)CNC(=O)[C@H](CCCCN)NC(=O)[C@H](Cc4ccc(O)cc4)NC(=O)[C@H]4CCCN4C(=O)[C@@H]4CCCN4C1=O)C(=O)N[C@@H](C)C(=O)N[C@@H](CCCCN)C(=O)N1CCC[C@@H]1C(=O)NCC(=O)N[C@@H](Cc1ccccc1)C(=O)N[C@@H](C(C)C)C(=O)N3)C(=O)N[C@@H](Cc1c[nH]cn1)C(=O)N[C@@H](CC(N)=O)C(=O)N[C@@H](Cc1c[nH]cn1)C(=O)N2 (stereo partly shown)  MIC (broth microdilution; ATCC 49775; 18 h): 1 µM
CCn1c(-c2ccc(Br)cc2)c(-c2ccc(Br)cc2)n(CC)c1=[Se]  MIC (microbial growth, broth dilution; ATCC700699 VISA; 24 h, drug-resistant strain): > 40 µM
CC[C@H](C)[C@H](N)C(=O)N[C@@H](CCCNC(=N)N)C(=O)N[C@H](C(=O)N[C@@H](Cc1c[nH]c2ccccc12)C(=O)N[C@@H](Cc1ccccc1)C(=O)N[C@H](C(=O)N[C@@H](CCCCN)C(=O)N[C@H](C(=O)N[C@@H](CCCNC(=N)N)C(=O)N[C@@H](CCCCN)C(=O)N[C@@H](CCSC)C(=O)N[C@@H](CCCCN)C(=O)N[C@@H](C)C(=O)N[C@H](C(=O)N[C@@H](Cc1ccc(O)cc1)C(=O)N[C@@H](Cc1c[nH]cn1)C(N)=O)[C@@H](C)CC)C(C)C)[C@@H](C)CC)C(C)C  MIC (broth dilution; ATCC 25923, Mueller-Hinton broth; 24 h, 37 °C): 100 µM
C#CCOc1ccc(CN[C@@]2(C)C[C@H](O[C@H]3[C@H](Oc4c5cc6cc4Oc4ccc(cc4Cl)[C@@H](O)[C@@H](NC(=O)[C@@H](CC(C)C)NC)C(=O)N[C@@H](CC(N)=O)C(=O)N[C@H]6C(=O)N[C@H]4C(=O)N[C@H](C(=O)N[C@H](C(=O)N[C@@H](CCCNC(=N)N)C(N)=O)c6cc(O)cc(O)c6-c6cc4ccc6O)[C@H](O)c4ccc(c(Cl)c4)O5)O[C@H](CO)[C@@H](O)[C@@H]3O)O[C@@H](C)[C@H]2O)cc1OC  MIC (NRS402 VISA): 2 µM
CC[C@H](C)[C@@H]1NC(=O)[C@@H]([C@@H](C)O)NC(=O)CNC(=O)[C@H](CC(=O)O)NC(=O)CNC(=O)[C@H](CC(=O)O)NC(=O)CNC(=O)[C@H]2CCCCN2C(=O)[C@@H](NC(=O)[C@H](CC(=O)O)NC(=O)/C=C/CCCCCCCCCC(C)C)CNC(=O)[C@@H]2CCCN2C1=O  MIC (broth microdilution; BR-VRSA strain 880, Mueller-Hinton broth, Mg2+ 10 mg/L; 16 h, added: Ca2+ 5 mM): 4 µg/mL
CC(C)C[C@@H]1NC(=O)[C@@H](CC(C)C)NC(=O)[C@H](CCN)NC(=O)[C@@H](NC(=O)[C@H](CCN)NC(=O)[C@@H](NC(=O)CCOCCOCCOCCN=[N+]=[N-])[C@@H](C)O)CCNC(=O)[C@H]([C@@H](C)O)NC(=O)[C@H](CCN)NC(=O)[C@H](CCN)NC1=O  MIC (broth microdilution; MSSA ATCC 29213, cation-adjusted Mueller-Hinton broth; 20 to 24 h, 37 °C, 0.002% polysorbate 80): > 16 µg/mL
CC[C@H](C)[C@H](NC(=O)[C@@H](CCC(=O)O)NC(=O)[C@H](CC(C)C)NC(=O)c1cccc(C(=O)O)n1)C(=O)N[C@H]1CCCCNC(=O)[C@H](CC(N)=O)NC(=O)[C@@H](CC(=O)O)NC(=O)[C@H](Cc2c[nH]cn2)NC(=O)[C@@H](Cc2ccccc2)NC(=O)[C@H]([C@@H](C)CC)NC(=O)[C@@H](CCCN)NC1=O  MIC (ATCC 29213 methicillin-susceptible; 18 h, 37 °C, 0.3 mM ZnSO4 LB): > 64 µg/mL
CN[C@H](CC(C)C)C(=O)N[C@H]1C(=O)N[C@@H](CC(N)=O)C(=O)N[C@H]2C(=O)N[C@H]3C(=O)N[C@H](C(=O)N[C@H](C(=O)O)c4cc(O)cc(O)c4-c4cc3ccc4O)[C@H](O)c3ccc(c(Cl)c3)Oc3cc2cc(c3O[C@@H]2O[C@H](CO)[C@@H](O)[C@H](O)[C@H]2O[C@H]2C[C@](C)(NCc3ccc(OCc4cn(CC(=O)N[C@H](C(=O)N[C@@H](CCN)C(=O)N[C@H]5CCNC(=O)[C@H]([C@@H](C)O)NC(=O)[C@H](CCN)NC(=O)[C@H](CCN)NC(=O)[C@H](CC(C)C)NC(=O)[C@@H](CC(C)C)NC(=O)[C@H](CCN)NC5=O)[C@@H](C)O)nn4)c(OC)c3)[C@H](O)[C@H](C)O2)Oc2ccc(cc2Cl)[C@H]1O  MIC (NRS402 VISA): 3 µM
CC(=O)N[C@@H](CC(C)C)C(=O)N[C@H]1CSSC[C@@H](C(=O)N2CCC[C@H]2C(N)=O)NC(=O)[C@H]([C@@H](C)O)NC(=O)[C@H](C(C)C)NC(=O)[C@H]([C@@H](C)O)NC(=O)CNC(=O)[C@H](CC(C)C)NC(=O)[C@H](Cc2ccccc2)NC(=O)[C@H](Cc2ccc(O)cc2)NC(=O)[C@H](CC(C)C)NC(=O)[C@H](CCCCN)NC(=O)[C@H](Cc2ccccc2)NC(=O)[C@H](CCCNC(=N)N)NC(=O)[C@H](CCCCN)NC(=O)[C@H](CC(C)C)NC(=O)[C@H](CCCCN)NC(=O)[C@@H]2CCCN2C(=O)[C@H](CCCCN)NC(=O)[C@H](C(C)C)NC(=O)[C@H](CC(N)=O)NC(=O)[C@H](Cc2ccc(O)cc2)NC(=O)[C@H]([C@@H](C)O)NC1=O  MIC (broth dilution; laboratory strain; 24 h): 2.5 to 5 µM

A few entries again:
COc1ccc2ccc(O)c(/C=N/[C@H]3CCCC[C@H]3/N=C/c3cccc(F)c3O)c2c1  MIC (bacterial growth, broth microdilution; vancomycin-intermediate): > 40 µM
